Measured values of several laboratories.
A part holds a random share of what one study measured. Changes are numbered by the printed parent chain.

Study 1
Target: PABPC1L2, full length, GST fusion (mouse, UniProt A0ABA7IW68)
Method: RNAcompete
Molecule type: RNA
Sample: in vitro
Concentration: 20 nM
Setting: 7-mer, probes averaged, single round
Reference: mean of 7-mers
Direction: higher = stronger binding
Construct (chain): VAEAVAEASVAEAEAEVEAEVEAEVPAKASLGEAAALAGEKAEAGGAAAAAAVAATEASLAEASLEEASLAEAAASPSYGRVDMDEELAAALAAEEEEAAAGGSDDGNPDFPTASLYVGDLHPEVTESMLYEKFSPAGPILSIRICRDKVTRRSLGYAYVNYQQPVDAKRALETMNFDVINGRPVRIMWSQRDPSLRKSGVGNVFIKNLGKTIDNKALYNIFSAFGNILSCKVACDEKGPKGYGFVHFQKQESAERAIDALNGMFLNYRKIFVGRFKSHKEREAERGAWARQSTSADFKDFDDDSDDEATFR
Sequence | 7-mer Z-score
AUCCAGA | -0.0627
UACCUGG | -0.208
UAAGGAU | -0.0192
GAUGUUC | -0.351
GUCGCAA | -0.0554
GUACCGA | -0.202
AUGCCAG | -0.139
ACGUGCG | 0.00798

Study 2
Target: CCNB2, cyclin fold, Cln2 fusion (human)
Method: yeast growth competition, sequencing
Sample: yeast
Setting: weak parent motif
Reference: not given
Direction: higher = stronger binding
Starting sequence: PKN2 docking peptide (human); VSAVRKLDFSDTM
Variant | normalised enrichment score
A3K | 0.333
T12I | 0.904
A3M | 1.05
T12N | 0.786
K6L | 0.104
K6V | -0.152
A3H | 0.295
V4L | 0.375

Study 3
Target: RING finger protein unkempt homolog, zinc fingers 1-6, SBP tag (UNK, Homo sapiens, UniProt Q9C0B0, residues 30-357)
Sequence of UniProt Q9C0B0 (30-357, looked up): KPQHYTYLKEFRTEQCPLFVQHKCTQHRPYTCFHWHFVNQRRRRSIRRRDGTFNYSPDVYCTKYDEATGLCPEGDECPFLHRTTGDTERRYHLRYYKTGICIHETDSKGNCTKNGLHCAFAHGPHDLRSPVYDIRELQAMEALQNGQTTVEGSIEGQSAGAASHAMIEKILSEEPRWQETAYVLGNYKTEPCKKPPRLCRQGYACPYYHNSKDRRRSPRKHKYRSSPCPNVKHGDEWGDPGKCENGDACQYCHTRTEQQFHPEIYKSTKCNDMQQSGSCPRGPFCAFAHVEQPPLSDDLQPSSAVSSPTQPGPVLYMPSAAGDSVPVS
Method: RNA Bind-n-Seq
Molecule type: RNA
Sample: in vitro
Concentration: 100 nM
Setting: RNA with constant flanks, vertebrate orthologous sites, ends assumed
Reference: input RNA pool
Direction: higher = stronger binding
All sequences stand within: GGGAGUUCUACAGUCCGACGAUC … CAACAGAGGAUUGAGCAUCA
Sequence | bound/input enrichment
CUACACCAGAUAUUUUAACUGUUUUAAAGUUACAAACAAGCUUUGCUUUUUGCAUUUAAAUAGAAUACUUUUAUAUUUUAAGUGCUUCAGAUGUGUGGAGAUGUUAGUUUGCUCUUAUAA | 0.574 ratio
AUUCAAACCUGUGGUACCGUGGCCUCAUGUCGAAGGAGUAGAAGUGGACCUAGAGUCUAUUAGAAGAAAAAACAAGGCCAAAAAUGAACAAGAGCACCACGCUGGAGGAGAUUCCCAGAA | 0.305 ratio
AUGUAGAGAACAAUUUUCAUUGACCCUUUCCACCGUUGUGAAAUUCUCUAGCAAUUUAUUUAGUAUCUUAAUUUUUCUAAUUCAAGCACAGUGUAUUAGUCAUUUUUAGCCCAUAAAUAA | 3.4 ratio
UGAAAGUUACAGACAAGAGUCUGAAAGUAGAAAUACAGGAUCCUGGUUGUCAUCAUCUCUAAGAAAUAGAUGUACACCUCUGUUCUCCAGAAGAAGGCGAGAAGGAAGAGAUGAAUCUGC | 0.342 ratio
AUCAUGGUUGCUUUUUACCGCCUCAAUGAGGUAAAGUCUCCCUUGGCAUUUGGUAGUUACAAGAGCCAGUCACACCUAAUAAGUCUUUCCAUGUUUCAUUUCUUUCAUACUCCUAGUCAU | 1.39 ratio
GAGGCAUGUCCUGUAGCUGUGUUCAAACACCUCACAGUACUCACUCUGUCCCAACAAUUCUAAUUGCCUAGAAAUAUCCUUCUCUUACCUGUUAUUUAUCAAUUUUUCCCAGUAUUUUUA | 2.31 ratio
AUCCUCAACUUGUUCUAGCUUGUGAUCCUUCAAAGUUGGGUCGGCAUUCGUGCCAGGUACUAGAAAAUUUCAUUUCUCUAUUGCCACUGAUCAGAGAGACAGACGUUAAAAACAGGAACA | 0.593 ratio
GGUUGAUGUUUUGAAGAAUCACUUAGUGAAAGAAGGUCGGGUAGAUGAAGAAAUUGCACUUAGAAUUAUCAAUGAGGGUGCUGCCAUCCUUCGGAGGGAGAAAACCAUGAUAGAAGUAGA | 0.813 ratio

Single results of other studies
Structure (SMILES) | assay | test system | conditions | endpoint | value
CC(C)n1cnc(-c2ccc(F)cc2)c1-c1ncc(C(=O)Nc2ccc(N3CCN(C)CC3)cc2)[nH]1 | phase 2a trial | idiopathic pulmonary fibrosis patients | dose not given, adverse event grade 5, all dose arms pooled | patients with gastrointestinal disorders | 0%
